Measured values gathered from unrelated publications.
Protocols differ between the studies behind these lines. “And” joins repeats or separate records; there may be more than shown. ± gives the spread as reported.
BCL2L1: Bcl-2-like protein 1 (BCL2L1, Homo sapiens, UniProt Q07817)
Chain of UniProt Q07817 (whole entry, looked up): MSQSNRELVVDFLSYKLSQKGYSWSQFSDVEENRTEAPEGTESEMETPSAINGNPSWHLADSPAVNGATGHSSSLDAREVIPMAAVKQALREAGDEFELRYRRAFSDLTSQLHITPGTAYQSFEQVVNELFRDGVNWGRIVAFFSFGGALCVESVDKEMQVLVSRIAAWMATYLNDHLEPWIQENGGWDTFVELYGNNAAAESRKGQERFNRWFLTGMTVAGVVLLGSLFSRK
Ribonucleoside-diphosphate reductase large subunit: Ribonucleoside-diphosphate reductase large subunit (Homo sapiens, UniProt P23921)
Chain of UniProt P23921 (whole entry, looked up): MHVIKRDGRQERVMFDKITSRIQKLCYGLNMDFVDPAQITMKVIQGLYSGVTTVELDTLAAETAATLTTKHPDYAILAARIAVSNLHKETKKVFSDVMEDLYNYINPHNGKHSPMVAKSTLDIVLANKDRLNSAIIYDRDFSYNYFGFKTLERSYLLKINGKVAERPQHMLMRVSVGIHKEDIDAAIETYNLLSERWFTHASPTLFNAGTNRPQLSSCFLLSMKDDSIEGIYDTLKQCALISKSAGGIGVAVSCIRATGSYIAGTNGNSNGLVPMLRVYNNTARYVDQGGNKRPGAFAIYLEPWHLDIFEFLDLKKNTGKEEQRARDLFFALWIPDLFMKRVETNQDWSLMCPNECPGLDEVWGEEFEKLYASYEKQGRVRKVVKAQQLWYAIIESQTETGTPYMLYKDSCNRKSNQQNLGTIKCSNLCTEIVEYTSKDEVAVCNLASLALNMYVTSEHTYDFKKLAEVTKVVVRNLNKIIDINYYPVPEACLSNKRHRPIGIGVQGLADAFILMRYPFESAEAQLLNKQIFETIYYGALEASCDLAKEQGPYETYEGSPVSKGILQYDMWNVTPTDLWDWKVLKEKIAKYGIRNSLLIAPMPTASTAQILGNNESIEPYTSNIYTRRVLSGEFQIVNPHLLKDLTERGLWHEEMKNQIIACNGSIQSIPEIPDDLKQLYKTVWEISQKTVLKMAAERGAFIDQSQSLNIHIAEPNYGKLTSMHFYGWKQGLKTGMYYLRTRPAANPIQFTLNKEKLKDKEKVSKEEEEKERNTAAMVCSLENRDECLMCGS
Methyl-accepting chemotaxis protein Tlp3 sensing domain: Methyl-accepting chemotaxis protein Tlp3, sensing domain (Campylobacter jejuni, UniProt Q0P864)
Chain of UniProt P00921 (whole entry, looked up): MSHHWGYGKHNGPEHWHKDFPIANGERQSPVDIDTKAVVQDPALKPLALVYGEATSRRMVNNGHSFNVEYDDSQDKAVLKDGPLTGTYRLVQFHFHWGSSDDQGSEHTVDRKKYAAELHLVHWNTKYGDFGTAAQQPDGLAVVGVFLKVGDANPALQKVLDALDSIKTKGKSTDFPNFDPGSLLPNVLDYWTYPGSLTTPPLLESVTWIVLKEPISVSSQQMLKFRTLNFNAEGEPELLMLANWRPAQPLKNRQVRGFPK
Chain of UniProt P04756 (whole entry, unmodified, looked up): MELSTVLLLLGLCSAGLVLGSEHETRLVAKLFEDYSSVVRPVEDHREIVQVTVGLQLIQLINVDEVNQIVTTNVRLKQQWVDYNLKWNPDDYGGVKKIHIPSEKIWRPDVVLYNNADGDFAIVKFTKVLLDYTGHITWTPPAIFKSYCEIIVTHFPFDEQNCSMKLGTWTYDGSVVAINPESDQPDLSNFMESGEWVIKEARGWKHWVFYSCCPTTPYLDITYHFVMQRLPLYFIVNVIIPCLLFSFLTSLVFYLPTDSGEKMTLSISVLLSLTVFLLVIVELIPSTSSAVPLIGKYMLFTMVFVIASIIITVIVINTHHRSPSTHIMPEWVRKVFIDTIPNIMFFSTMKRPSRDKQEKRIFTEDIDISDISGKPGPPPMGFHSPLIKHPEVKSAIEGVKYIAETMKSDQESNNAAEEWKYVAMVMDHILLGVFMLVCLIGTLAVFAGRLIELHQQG
Chain of UniProt P69905 (whole entry, looked up): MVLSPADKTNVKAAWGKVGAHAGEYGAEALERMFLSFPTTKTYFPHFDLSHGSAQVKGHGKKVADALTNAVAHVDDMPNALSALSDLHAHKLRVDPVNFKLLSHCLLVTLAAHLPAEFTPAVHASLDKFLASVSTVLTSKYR
Chain of UniProt P09769 (whole entry, looked up): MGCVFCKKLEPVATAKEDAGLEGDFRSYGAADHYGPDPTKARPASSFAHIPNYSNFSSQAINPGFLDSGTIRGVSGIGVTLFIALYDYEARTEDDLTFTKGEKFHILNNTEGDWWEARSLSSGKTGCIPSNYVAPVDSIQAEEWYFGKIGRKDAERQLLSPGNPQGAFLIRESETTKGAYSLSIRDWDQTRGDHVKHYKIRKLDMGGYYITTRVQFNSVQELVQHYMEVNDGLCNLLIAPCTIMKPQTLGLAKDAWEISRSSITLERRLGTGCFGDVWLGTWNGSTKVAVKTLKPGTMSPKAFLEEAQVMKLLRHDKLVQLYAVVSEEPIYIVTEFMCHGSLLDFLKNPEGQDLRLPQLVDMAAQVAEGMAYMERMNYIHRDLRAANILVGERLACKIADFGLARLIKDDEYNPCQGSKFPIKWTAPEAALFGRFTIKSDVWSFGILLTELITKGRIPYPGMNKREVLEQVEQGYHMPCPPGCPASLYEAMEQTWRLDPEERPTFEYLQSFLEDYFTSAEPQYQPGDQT
Chain of UniProt P63073 (whole entry, looked up): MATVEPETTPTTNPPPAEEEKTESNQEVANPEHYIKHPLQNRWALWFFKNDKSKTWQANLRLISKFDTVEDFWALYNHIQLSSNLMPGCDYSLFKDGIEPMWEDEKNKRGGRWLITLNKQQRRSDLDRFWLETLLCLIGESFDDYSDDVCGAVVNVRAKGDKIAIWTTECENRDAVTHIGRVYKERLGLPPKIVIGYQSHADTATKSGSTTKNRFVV
Chain of UniProt P08684 (whole entry, unmodified, looked up): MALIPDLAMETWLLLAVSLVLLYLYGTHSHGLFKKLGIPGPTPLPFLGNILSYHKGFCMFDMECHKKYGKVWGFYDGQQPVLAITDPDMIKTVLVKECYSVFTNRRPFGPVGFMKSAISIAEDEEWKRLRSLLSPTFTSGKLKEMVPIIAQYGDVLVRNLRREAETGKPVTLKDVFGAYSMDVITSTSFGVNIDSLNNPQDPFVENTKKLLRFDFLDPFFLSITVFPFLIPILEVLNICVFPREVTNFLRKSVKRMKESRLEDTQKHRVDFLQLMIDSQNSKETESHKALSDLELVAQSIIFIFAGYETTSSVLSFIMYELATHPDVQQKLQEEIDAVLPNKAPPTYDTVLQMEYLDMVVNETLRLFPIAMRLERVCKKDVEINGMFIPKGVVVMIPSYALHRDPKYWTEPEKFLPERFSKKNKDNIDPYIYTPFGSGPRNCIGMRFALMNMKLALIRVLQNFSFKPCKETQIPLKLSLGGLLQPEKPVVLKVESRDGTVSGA
Chain of UniProt P16070 (whole entry, looked up): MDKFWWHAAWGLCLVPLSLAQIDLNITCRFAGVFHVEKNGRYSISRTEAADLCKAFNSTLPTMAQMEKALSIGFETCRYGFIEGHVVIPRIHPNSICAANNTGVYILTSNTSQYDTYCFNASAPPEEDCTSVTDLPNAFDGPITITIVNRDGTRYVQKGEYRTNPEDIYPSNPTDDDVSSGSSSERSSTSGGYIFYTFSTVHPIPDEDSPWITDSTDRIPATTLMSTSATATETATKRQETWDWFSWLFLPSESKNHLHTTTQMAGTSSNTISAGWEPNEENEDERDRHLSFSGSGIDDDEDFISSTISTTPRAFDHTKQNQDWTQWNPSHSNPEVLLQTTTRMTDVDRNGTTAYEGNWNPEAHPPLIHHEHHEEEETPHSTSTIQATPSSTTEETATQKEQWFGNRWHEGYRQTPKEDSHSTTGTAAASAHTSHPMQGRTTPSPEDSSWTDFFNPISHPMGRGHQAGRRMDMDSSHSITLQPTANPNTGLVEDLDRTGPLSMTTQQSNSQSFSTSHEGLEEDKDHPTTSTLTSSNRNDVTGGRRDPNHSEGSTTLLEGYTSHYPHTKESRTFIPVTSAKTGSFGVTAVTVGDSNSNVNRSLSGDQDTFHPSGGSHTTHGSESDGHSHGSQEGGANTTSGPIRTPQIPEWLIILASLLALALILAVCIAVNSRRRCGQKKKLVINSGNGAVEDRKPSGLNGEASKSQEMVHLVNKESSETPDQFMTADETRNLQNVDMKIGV
Chain of UniProt P02791 (whole entry, looked up): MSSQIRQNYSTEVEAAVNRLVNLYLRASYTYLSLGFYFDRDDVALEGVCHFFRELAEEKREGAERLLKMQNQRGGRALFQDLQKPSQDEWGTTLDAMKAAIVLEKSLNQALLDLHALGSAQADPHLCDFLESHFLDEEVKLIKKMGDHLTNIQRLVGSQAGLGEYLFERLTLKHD
Chain of UniProt P20782 (whole entry, unmodified, looked up): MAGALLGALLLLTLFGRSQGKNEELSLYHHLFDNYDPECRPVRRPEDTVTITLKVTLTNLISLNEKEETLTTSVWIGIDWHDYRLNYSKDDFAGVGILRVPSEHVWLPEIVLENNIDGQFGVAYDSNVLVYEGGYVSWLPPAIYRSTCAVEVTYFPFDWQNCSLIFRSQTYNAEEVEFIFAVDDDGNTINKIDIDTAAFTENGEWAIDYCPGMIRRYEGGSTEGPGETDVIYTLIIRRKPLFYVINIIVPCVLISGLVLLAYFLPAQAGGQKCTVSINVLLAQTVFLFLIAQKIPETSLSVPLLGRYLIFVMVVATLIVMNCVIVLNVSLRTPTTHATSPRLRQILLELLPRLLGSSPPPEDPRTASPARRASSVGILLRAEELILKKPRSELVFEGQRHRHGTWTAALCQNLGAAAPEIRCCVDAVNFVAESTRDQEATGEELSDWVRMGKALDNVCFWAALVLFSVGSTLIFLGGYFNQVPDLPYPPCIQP
Chain of UniProt P02754 (whole entry, looked up): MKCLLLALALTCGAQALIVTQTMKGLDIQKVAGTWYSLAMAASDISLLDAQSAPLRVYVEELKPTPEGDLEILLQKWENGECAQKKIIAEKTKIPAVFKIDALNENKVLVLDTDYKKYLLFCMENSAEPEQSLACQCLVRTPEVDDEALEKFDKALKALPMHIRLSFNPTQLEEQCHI
Chain of UniProt P06768 (whole entry, looked up): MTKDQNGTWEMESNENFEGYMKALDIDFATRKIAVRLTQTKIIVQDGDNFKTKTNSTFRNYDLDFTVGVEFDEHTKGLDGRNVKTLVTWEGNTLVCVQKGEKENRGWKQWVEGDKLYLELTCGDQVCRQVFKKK

`YAQEIGRNGDEF` has a Kd of 0.011 ± 0.003 µM (BCL2L1; yeast display titration; peptide; 2 h, pH 8.0, room temperature).
The Kd of COc1ccc(-c2ccccc2)c(/C=N/NC(=O)c2ccccc2O)c1O is reported as 4.8 µM (Ribonucleoside-diphosphate reductase large subunit; binding, fluorescence).
CC1=C(/C=C/C(C)=C/C=C/C(C)=C/C=C/C=C(C)/C=C/C=C(C)/C=C/C2=C(C)C[C@H](O)CC2(C)C)C(C)(C)C[C@H](O)C1 gave a Kd of 2.7 µM (Beta-lactoglobulin (LGB, Bos taurus, UniProt P02754); binding, SPR).
With CC[C@H]1OC(=O)[C@H](C)[C@@H](O[C@H]2C[C@@](C)(OC)[C@@H](O)[C@H](C)O2)[C@H](C)[C@@H](O[C@@H]2O[C@H](C)C[C@H](N(C)C)[C@H]2O)[C@](C)(O)C[C@@H](C)[C@@H]2N[C@@H](COCCOC)O[C@H]([C@H]2C)[C@]1(C)O the Kd was 0.005 ± 0.001 µM (Thermus thermophilus 70S ribosome; binding, fluorescence anisotropy competition; 25 °C, added: BODIPY-erythromycin).
With CC(=O)N[C@H]1[C@H](O[C@H]2[C@H](O)[C@@H](O)[C@H](O[C@H]3[C@H](O)[C@@H](CO)O[C@@H](O[C@H]4[C@H](O)[C@@H](O)[C@H](O[C@H]5[C@H](O)[C@@H](CO)O[C@@H](O[C@H]6[C@H](O)[C@@H](O)[C@H](O[C@H]7[C@H](O)[C@@H](CO)OC(O)[C@@H]7NC(C)=O)O[C@@H]6C(=O)O)[C@@H]5NC(C)=O)O[C@@H]4C(=O)O)[C@@H]3NC(C)=O)O[C@@H]2C(=O)O)O[C@H](CO)[C@@H](O)[C@@H]1O[C@@H]1O[C@H](C(=O)O)[C@@H](O)[C@H](O)[C@H]1O (stereo partly shown) the Kd was 24.6 µM (CD44 antigen (Homo sapiens, UniProt P16070); binding, ITC; pH 6.7).
For Nc1ncnc2c1ncn2[C@@H]1O[C@H](COP(=O)(O)OP(=O)(O)OP(=O)(O)O)[C@@H](O)[C@H]1O, the Kd was 2.6 µM (FGR (Homo sapiens, UniProt P09769)).
With CC(C)C[C@H](N)C(=O)O the Kd was 799 ± 38 µM (Methyl-accepting chemotaxis protein Tlp3 (Campylobacter jejuni, UniProt Q0P864); binding, ITC; melting temperature).
The Kd of O=C(NNC(=O)c1ccccc1O)c1cccnc1 is reported as 60.6 µM (Ribonucleoside-diphosphate reductase large subunit; binding, fluorescence; pH 8).
CC(=O)N[C@@H](CC(C)C)C(=O)N[C@@H](CCCCN)C(=O)N[C@@H](CCCCN)C(=O)N[C@@H](CC(C)C)C(=O)N[C@@H](CC(C)C)C(=O)N[C@@H](CCCCN)C(=O)N[C@@H](CC(C)C)C(=O)N[C@@H](CC(C)C)C(=O)N[C@@H](CCCCN)C(=O)N[C@@H](CCCCN)C(=O)N[C@@H](CC(C)C)C(=O)N[C@@H](Cc1c[nH]c2ccccc12)C(=O)N[C@@H](CCCCN)C(=O)N[C@@H](CC(C)C)C(=O)N[C@@H](C)C(=O)NCC(N)=O has a Kd of 0.01 ± 0.001 µM (HIV-1 TAR hairpin RNA; competitive fluorescence anisotropy; pH 7.4, 20 °C, added: rhodamine-Rev peptide).
The Kd of c1ccc2nc3ccccc3cc2c1 is reported as 14.5 ± 1.2 µM (HIV-1 nucleocapsid-SL3 RNA complex; binding, ESI-FTMS; pH 7.5).
With O=C(NN=Cc1ccc(C[n+]2ccccc2)cc1)c1ccc2ccc3ccc(C(=O)NN=Cc4ccc(C[n+]5ccccc5)cc4)nc3c2n1 the Kd was 0.58 µM (MYC promoter G4 DNA; binding, native ESI-MS; 100 mM trimethylammonium acetate; 1 mM KCl).
With O=C(N/N=C/c1cc(-c2ccsc2)ccc1O)c1ccccc1O the Kd was 53.8 µM (Ribonucleoside-diphosphate reductase large subunit; binding, fluorescence; pH 8).
With OCc1ccc(-c2nn(Cc3ccccc3)c3ccccc23)o1 the Kd was 21 µM and ~20 µM (soluble guanylate cyclase beta subunit, N-terminal fragment (Manduca sexta, UniProt O77106); binding, CO titration, global fit; 1 µM protein, 1 cm cuvette).
For `IGAQFGRFADDF`, the Kd was 0.0013 ± 0.0003 µM (BCL2L1; yeast display titration; peptide; 2 h, pH 8.0, room temperature).
CCCCCCCCCCCCCCCC(=O)OC[C@H](COP(=O)(O)O[C@@H]1[C@H](O)[C@H](OP(=O)(O)O)[C@@H](O)[C@H](O)[C@H]1O)OC(=O)CCCCCCCCCCCCCCC gave a Kd of over 50 µM (Vacuolar protein sorting-associated protein 74 (VPS74, Saccharomyces cerevisiae, UniProt Q06385); surface plasmon resonance; DOPC vesicles 3 mol% lipid; pH 7.5, 25 °C).
CC(C)[C@H](N)C(=O)O has a Kd of 372 ± 87 µM (Methyl-accepting chemotaxis protein Tlp3 sensing domain; binding, thermal shift; 25 °C, unfolding equilibrium constant, ITC enthalpy).
O=C(N/N=C/c1c(O)ccc2ccccc12)c1ccc(-n2ccccc2=O)cc1 gave a Kd of 36.8 µM (Ribonucleoside-diphosphate reductase large subunit; binding, fluorescence; pH 8).
The Kd of CC(=O)[C@H]1CC[C@H]2[C@@H]3CCC4=CC(=O)CC[C@]4(C)[C@H]3CC[C@]12C is reported as 7 µM (Cytochrome P450 3A4 (CYP3A4, Homo sapiens, UniProt P08684, S18F); POPC Nanodiscs; pH 7.4, 37 °C, first binding step).
CCC[C@H](N)C(=O)O has a Kd of 1580 ± 671 µM (Methyl-accepting chemotaxis protein Tlp3 sensing domain; binding, thermal shift unfolding equilibrium; at To sensing domain).
CC(=O)N[C@@H](CC(C)C)C(=O)N[C@@H](CCCCN)C(=O)N[C@@H](CCCCN)C(=O)N[C@@H](Cc1c[nH]c2ccccc12)C(=O)N[C@@H](CC(C)C)C(=O)N[C@@H](CCCCN)C(=O)N[C@@H](CC(C)C)C(=O)N[C@@H](CC(C)C)C(=O)N[C@@H](CCCCN)C(=O)N[C@@H](CCCCN)C(=O)N[C@@H](CC(C)C)C(=O)N[C@@H](CC(C)C)C(=O)N[C@@H](CCCCN)C(=O)N[C@@H](CC(C)C)C(=O)N[C@@H](C)C(=O)NCC(N)=O gave a Kd of 0.034 ± 0.0009 µM (HIV-1 TAR hairpin RNA; competitive fluorescence anisotropy; pH 7.4, 20 °C, added: rhodamine-Rev peptide).
With O=S(=O)(O)c1cccc2c(-c3ccc(Nc4ccccc4)c4c(S(=O)(=O)O)cccc34)ccc(Nc3ccccc3)c12 the Kd was 0.829 µM (uncharacterized protein (Drosophila suzukii, UniProt A0AB39ZGK5); fluorescent probe titration).
With CC(C)c1cccc(C2(C(F)(F)F)N=N2)c1F the Kd was 6.6 µM (FTL (Equus caballus, UniProt P02791); ligand displacement, fluorescence).
With CC[C@H](C)[C@H](NC(=O)[C@H](CCCNC(=N)N)NC(=O)[C@H](CCCCN)NC(=O)[C@@H]1CCCN1C(=O)[C@@H]1CCC[N+]1(C)C)C(=O)N[C@@H](C)C(=O)N[C@@H](CCCCN)C(=O)N[C@@H](CCCNC(=N)N)C(=O)N[C@@H](CCCNC(=N)N)C(=O)N[C@@H](CO)C(=O)O the Kd was 1.3 µM (N-terminal Xaa-Pro-Lys N-methyltransferase 1 (Homo sapiens, UniProt Q9BV86); binding, isothermal titration calorimetry; pH 8.0, 25 °C).
For O=Cc1c(O)cccc1OCc1cccc(CO)n1, the Kd was 100 µM (Hemoglobin subunit alpha, with beta chain (HBA1, Homo sapiens, UniProt P69905); binding, cation-exchange HPLC; 37 °C, steady state).
For CC(=O)N[C@@H](CC(C)C)C(=O)N[C@@H](CCCCN)C(=O)N[C@@H](CCCCN)C(=O)N[C@@H](CC(C)C)C(=O)N[C@@H](CC(C)C)C(=O)N[C@@H](CCCCN)C(=O)N[C@@H](CC(C)C)C(=O)N[C@@H](CC(C)C)C(=O)N[C@@H](CCCCN)C(=O)N[C@@H](CCCCN)C(=O)N[C@@H](Cc1c[nH]c2ccccc12)C(=O)N[C@@H](CC(C)C)C(=O)N[C@@H](CCCCN)C(=O)N[C@@H](CC(C)C)C(=O)N[C@@H](C)C(=O)NCC(N)=O, the Kd was 0.043 ± 0.007 µM (HIV-1 TAR hairpin RNA; competitive fluorescence anisotropy; pH 7.4, 20 °C, added: rhodamine-Rev peptide).
CC[n+]1c(-c2ccccc2)c2cc(N)ccc2c2ccc(N)cc21 gave a Kd of 25.5 ± 2.3 µM (HIV-1 nucleocapsid-SL4 RNA complex; binding, ESI-FTMS; pH 7.5).
For CC(C)CCC[C@@H](C)[C@H]1CC[C@H]2[C@@H]3CC=C4C[C@@H](O)CC[C@]4(C)[C@H]3CC[C@]12C, the Kd was 0.94 µM (Eif4e (Mus musculus, UniProt P63073); cap analogue binding, pyrene fluorescence competition; 20 °C).
Cc1occc(=S)c1O gave a Kd of 350 µM (Carbonic anhydrase 2, Co(II)-substituted (CA2, Bos taurus, UniProt P00921); binding, UV-vis titration; pH 7.5, protonated form).
The Kd of CC1=CCC[C@@]2(C)CCC3=C(C)CC[C@@H](C[C@H]12)C3(C)C is reported as 2.1 ± 0.4 µM (Taxadiene 5-alpha hydroxylase, N-terminal Δ1-24; CPR fusion (Taxus cuspidata, UniProt Q6WG30); binding, UV-Vis type I spectral titration; 32 °C, CYP-CPR fusion, no NADPH).
For C[N+](C)(C)CCO, the Kd was 3200 ± 600 µM (Chrnd/Chrna1/Chrne (Mus musculus, UniProt P02716+P04756+P20782, D117E); binding).
The Kd of CC1=C(/C=C/C(C)=C/C=C/C(C)=C/C=O)C(C)(C)CCC1 is reported as 0.011 ± 0.004 µM (Retinol-binding protein 2 (Rbp2, Rattus norvegicus, UniProt P06768); binding, fluorescence titration; pH 7.4, 25 °C).

Excerpt of the above:
The Kd of CC(=O)[C@H]1CC[C@H]2[C@@H]3CCC4=CC(=O)CC[C@]4(C)[C@H]3CC[C@]12C is reported as 7 µM (Cytochrome P450 3A4 (CYP3A4, Homo sapiens, UniProt P08684, S18F); POPC Nanodiscs; pH 7.4, 37 °C, first binding step).
CCC[C@H](N)C(=O)O has a Kd of 1580 ± 671 µM (Methyl-accepting chemotaxis protein Tlp3 sensing domain; binding, thermal shift unfolding equilibrium; at To sensing domain).
CC(=O)N[C@@H](CC(C)C)C(=O)N[C@@H](CCCCN)C(=O)N[C@@H](CCCCN)C(=O)N[C@@H](Cc1c[nH]c2ccccc12)C(=O)N[C@@H](CC(C)C)C(=O)N[C@@H](CCCCN)C(=O)N[C@@H](CC(C)C)C(=O)N[C@@H](CC(C)C)C(=O)N[C@@H](CCCCN)C(=O)N[C@@H](CCCCN)C(=O)N[C@@H](CC(C)C)C(=O)N[C@@H](CC(C)C)C(=O)N[C@@H](CCCCN)C(=O)N[C@@H](CC(C)C)C(=O)N[C@@H](C)C(=O)NCC(N)=O gave a Kd of 0.034 ± 0.0009 µM (HIV-1 TAR hairpin RNA; competitive fluorescence anisotropy; pH 7.4, 20 °C, added: rhodamine-Rev peptide).
